Published values gathered from unrelated publications.
Each numbered part is a random draw from the data of one study; scales do not carry over between parts.

Block 1 — method: RNA Bind-n-Seq; molecule type: RNA; medium: in vitro; concentration: 1 µM; notes: whole 134-nt RNA, ends assumed; together with: 150 mM KCl; reference: input library; reading: higher = stronger binding; measurement: log2 enrichment
Target: Ras GTPase-activating protein-binding protein 1, C-terminal RGG region (G3BP1, Homo sapiens, UniProt Q13283)
Sequence of UniProt Q13283 (whole entry, looked up): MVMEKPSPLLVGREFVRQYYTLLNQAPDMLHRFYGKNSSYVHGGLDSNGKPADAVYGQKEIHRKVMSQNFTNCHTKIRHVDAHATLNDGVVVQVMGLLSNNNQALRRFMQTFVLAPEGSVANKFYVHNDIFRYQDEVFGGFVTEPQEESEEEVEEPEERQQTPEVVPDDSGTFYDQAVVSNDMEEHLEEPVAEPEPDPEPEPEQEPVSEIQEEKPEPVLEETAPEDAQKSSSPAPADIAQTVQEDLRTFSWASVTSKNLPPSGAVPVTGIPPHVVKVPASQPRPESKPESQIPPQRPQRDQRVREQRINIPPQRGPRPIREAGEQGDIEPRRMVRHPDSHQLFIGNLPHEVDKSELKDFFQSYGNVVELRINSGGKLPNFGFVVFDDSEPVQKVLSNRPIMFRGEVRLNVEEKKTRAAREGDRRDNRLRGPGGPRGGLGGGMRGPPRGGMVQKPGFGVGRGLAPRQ
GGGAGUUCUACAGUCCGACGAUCACCAUGCAGGUGGGCAUCUUUGGGAAGUGGGGCAAGGGGGGGAUAGGGAGGGGGGUAACACUUUGGGAACAAAUGGUCCCAGGUCGUUUCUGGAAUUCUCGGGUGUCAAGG: -0.551
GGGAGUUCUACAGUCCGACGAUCACCAUGCAGGUGGGCAUCUUUGGGAAGUGGGGCAAGGGGGGGAUAGGGAGGGGGGUAACACUUUGGCAACAGGUGGUCCCAGGUCGUUUCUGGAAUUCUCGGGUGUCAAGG: 2.24
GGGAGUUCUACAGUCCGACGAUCUGGCCCUGGUGGCAUGCGGGGAGGAAGAGGGGGCCUCAUGGAUCGUGGUGGUCCCGGUGGAAUGUUCAGAGGUGGCCGUGGUGGAGACAGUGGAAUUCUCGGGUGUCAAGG: 2.01
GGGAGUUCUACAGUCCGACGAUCAGUCCUGUGCUACACAUCGUAUGUACCGAAUCGGGGUUUUGGGUUUUGGGUUUUGGGGAAAGUAUUAUGUUACGCCGUUCGGAUCUGCACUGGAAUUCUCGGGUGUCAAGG: 1.16
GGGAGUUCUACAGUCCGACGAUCAAGUCCUGUGCUACACAUCGUAUGUACCGAAUCGGGGAAAAGGAAAAGGGAAAAGGGAAAGUAUUAUGUUACGCCGUUCGGAUCUGCACUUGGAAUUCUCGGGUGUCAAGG: -1.63
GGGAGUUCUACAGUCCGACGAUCUCCUGUGCUACACAUCGUAUGUACCGAAUCGGCCCCCCGGGCCCCCCGGGGCCCCCCGGAAAGUAUUAUGUUACGCCGUUCGGAUCUGCAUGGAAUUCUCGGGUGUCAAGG: -1.27
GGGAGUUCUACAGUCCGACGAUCUUCGACGAAACAAUUCGAAAGCCCAUCAGUUUGGGUUGUGGCCAUACUGUCUGCAAGAUGUGCCUGAAUAAACUCCACCGCAAGGCUUGCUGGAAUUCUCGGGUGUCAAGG: -0.173
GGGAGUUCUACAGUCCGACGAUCACCAUGCAGGUGGGCAUCUUUGGGAAGUGGGGCAAGGGGGGGAUAGGGAGGGGGGUAACACUUUGGGAACAGGUUGUCCCAGGUCGUUUCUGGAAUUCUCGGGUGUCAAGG: 2.5
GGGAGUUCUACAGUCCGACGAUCCUCAAGUCCUGUGCUACACAUCGUAUGUACCGAAUCGGGUUUGGGUGGGUGGGAAAGUAUUAUGUUACGCCGUUCGGAUCUGCACUUCCAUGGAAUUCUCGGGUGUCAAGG: 2.06
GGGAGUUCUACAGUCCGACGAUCACCAUGCAGGUGCGCAUCUUUGGGAAGUGGGGCAAGGGGGGGAUAGGGAGGGGGGUAACACUUUGGGAACAGGUGGUCCCAGGUCGUUUCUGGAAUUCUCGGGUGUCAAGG: -1.49

Block 2 — method: protein binding microarray; molecule type: double-stranded DNA, one strand shown; medium: in vitro; concentration: not given; reference: not given; reading: higher = stronger binding; measurement: E-score
Target: Histone acetyltransferase KAT6A, both winged helices, GST fusion (KAT6A, Homo sapiens, UniProt Q92794, residues 1-181)
Notes: 8-mer, flanks averaged, mean of 2 arrays, mostly near background
Target sequence (chain): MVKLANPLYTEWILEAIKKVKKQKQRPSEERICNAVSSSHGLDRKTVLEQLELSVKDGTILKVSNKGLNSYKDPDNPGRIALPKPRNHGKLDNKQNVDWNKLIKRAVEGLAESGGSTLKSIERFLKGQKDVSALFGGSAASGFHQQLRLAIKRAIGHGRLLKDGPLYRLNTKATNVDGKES
ATCCAGTA: -0.183
AAAATGTG: 0.0307
GACTTCAC: -0.00619
GGCCTTAA: -0.0941
ACATTGTA: -0.102
CGCAATAG: 0.0483
CGCTAGTC: 0.0863
GTTAGCTA: -0.0962
GTCCACGA: 0.0389
CTCTGTGC: -0.0486
GGTCGAAC: -0.0148
ATCTACGG: 0.225
TAGCACGA: 0.0251
CGGTATTC: 0.212
CCTATTCC: -0.0861
ACTAAAGT: -0.237
CCCATTGA: 0.0202
TACAGGGA: -0.175
CAACGGGC: 0.158

Block 3 — method: protein-binding microarray; molecule type: double-stranded DNA, one strand shown; medium: in vitro; concentration: 2200 nM top; notes: 60-bp whole probe; together with: salmon DNA 0.4 mg/ml; reference: random background probes; reading: higher = stronger binding; measurement: fitted relative affinity; all sequences stand within: GCCTAGCAC … GTCTTGATTCGCTTGACGCTGCTG
Target: Interferon regulatory factor 7, full length, phosphomimetic (IRF7, Homo sapiens, UniProt Q92985, residues 1-503, S471D/S472D/S475D/S476D/S477D/S483D/S484D/S487D)
Sequence of UniProt Q92985 (whole entry, unmodified, looked up): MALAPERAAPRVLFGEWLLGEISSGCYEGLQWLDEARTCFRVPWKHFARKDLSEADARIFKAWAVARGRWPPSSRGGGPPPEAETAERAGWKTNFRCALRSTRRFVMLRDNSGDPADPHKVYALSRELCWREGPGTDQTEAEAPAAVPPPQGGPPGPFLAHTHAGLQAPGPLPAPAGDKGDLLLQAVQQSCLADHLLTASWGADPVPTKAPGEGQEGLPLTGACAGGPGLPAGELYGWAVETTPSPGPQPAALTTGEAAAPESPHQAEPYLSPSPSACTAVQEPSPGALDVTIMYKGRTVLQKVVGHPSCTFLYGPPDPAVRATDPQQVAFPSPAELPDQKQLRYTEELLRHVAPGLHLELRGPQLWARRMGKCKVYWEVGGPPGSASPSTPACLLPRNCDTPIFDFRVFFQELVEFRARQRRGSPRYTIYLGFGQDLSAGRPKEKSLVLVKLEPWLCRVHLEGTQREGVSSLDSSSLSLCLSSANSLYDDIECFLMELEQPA
GACGATCTCAGACTGGAGTCGTGCTAG: 0.174 z-score
GACGGTTTCCTTATCCTTACGTGCTAG: 3.17 z-score
TCCTGTGACGTTAAGGTCTCGTGCTAG: 0.911 z-score
GACGGTTTCGAACTGGGGACGTGCTAG: 3.02 z-score
TTAGAACTGGGGTTTCCATTAGTGCTA: 0.526 z-score
TTAGGACTGGATACTGGGTTAGTGCTA: -0.485 z-score
TTAGTACTGCTTTTCCTTTAGTGCTAG: 2.52 z-score
TCACATTTATTTACTCTCACTGTGCTA: 1.6 z-score
TATATATCCATTATAGATGAGTGCTAG: 0.607 z-score
CTAGGTTTCGGGTTTCGGTTAGTGCTA: 11.2 z-score
TAAGGTATCGGGACTGGGTTAGTGCTA: -0.582 z-score
GACGGTATCCTTCTCGTGACGTGCTAG: 0.877 z-score
CTTCTTTTGCTAATTTTTTTGTGCTAG: 1.85 z-score
AGCTACTGAGTGGCAACACAGTGCTAG: -0.591 z-score
TCCTCTCTCTATTCAGAGGAGTGCTAG: 1.63 z-score
GACGGTTCCATTTTCCTGACGTGCTAG: 2.49 z-score
GACGGTTTCGACTTTCGGGCCGTGCTA: 8.39 z-score
TGGTTTTTACTTTCTGAATGGTGCTAG: 4.64 z-score
AATGTATAACGCCATTAGCTGTGCTAG: 0.219 z-score
TTCGATATCGGGACTGGATTAGTGCTA: 0.568 z-score
CAACATCTGCAAGATCCACAAGTGCTA: 0.385 z-score
GACGGTATCGACAATGGGGACGTGCTA: -0.336 z-score

Block 4 — method: RNA Bind-n-Seq; molecule type: RNA; medium: in vitro; concentration: 365 nM; reference: no-protein control; reading: higher = stronger binding; measurement: RBNS enrichment (R)
Target: RNA binding protein fox-1 homolog 2, RRM domain, GST-SBP tag (RBFOX2, Homo sapiens, UniProt O43251-10, residues 100-194)
Notes: natural RNA segment, single round, ends assumed
Residues (chain): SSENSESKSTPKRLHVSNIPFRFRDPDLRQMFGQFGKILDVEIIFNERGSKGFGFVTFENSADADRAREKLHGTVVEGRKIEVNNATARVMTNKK
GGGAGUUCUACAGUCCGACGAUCAUAAUAAAAAUGUUAACCAGAAGGUAAACUUGAGUGUAAUUGUCAGACAGACACACUUUUCCACCAGUGUAUUUGAAUUUUAGACCAGUGACCCUGUUUUGUGGCAUUCAUGGAAUUCUCGGGUGCCAA: 0.746
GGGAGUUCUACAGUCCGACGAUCCUUGCACACAGCCAUUCCCUAGCGCAAAGGUGCUGGUCACACUGCUUACUGAGGCGCUGAAGAGGCUCCCCCCACCCCCUUGAGGGUCAGUUUGUUAUUUCUCAAGUAUAUGGAAUUCUCGGGUGCCAA: 0.705
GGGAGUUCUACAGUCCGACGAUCUUUUAAUUUAUUAUGCCAUGAAUUUAUAAACAUUUAAUAUAAAACAUUAUAACAUUUGCUGUUUUAAAAUUUUUGCUAUUUUUUCACAAACUGAUAUUCAAAAUAUUAAAUGGAAUUCUCGGGUGCCAA: 1.12
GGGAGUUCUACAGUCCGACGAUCUUUCCAGGUCCCUGCUUCUCACCUCCUCCAUCUUGCUUCGCCUUUCAAUAAACAGUUGAUGCAUACCCCAGCGUGGCUUCCUUUUGAAGUUCUCAACCUGUGGGUCGCGAUGGAAUUCUCGGGUGCCAA: 0.293
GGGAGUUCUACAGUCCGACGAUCGUCCCCUUGUAGCAUAUGCAUUAUGUCAUCUGAAUUGAGGCCUUUCUGUGAACAGCAUCAUAACUUCUAUCAUGGAAAGUGUACUAUAUAUAAUGUUUGUGUCAUGUAUAUGGAAUUCUCGGGUGCCAA: 0.474
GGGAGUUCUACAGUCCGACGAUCACUGUGGUACAUAUAAGCAACUUUAAUAGGUGAUAAAUGUACAGUAGUUAGAUUUCACCUGCAUAUACAUUUUUCCAUUUUAUGCUCUAUGAUCUGAACAAAAGCUUUUUUGGAAUUCUCGGGUGCCAA: 0.991
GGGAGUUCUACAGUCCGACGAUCUCUACUCCCUCUGAGAGUUUUCAACAUCAGUUGAUUGAGCUUCAGGCUUUCCAACGUUAUCCCUGUAGAGAUCAUCUUUACAGUUCCUCGGGAAAAUGUGAAUGUGCCGCUGGAAUUCUCGGGUGCCAA: 0.48
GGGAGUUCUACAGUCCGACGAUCUUCGUUAACAGAGGAAUCUGCUCUGCAUGGCAUUUCUCCAAGUGAAGACAGGCUUCUUUUUUUUUUUUUUAAAUGGUGCCCGCCCCACCCAUCGACACAUGCAGAAAUGGUGGAAUUCUCGGGUGCCAA: 0.596
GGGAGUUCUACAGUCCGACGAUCUGGAUGCUUAAAAAGUAAGUGCUUGGAUUUAACCCUAAAGUGGUUUGAAAUUGGGAAGAAGUGUGACAGGAUACAGUUGGGCUAAUUAUGCAAUAUUUCAUCUGUUUAAUUGGAAUUCUCGGGUGCCAA: 0.933
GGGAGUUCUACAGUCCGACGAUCUAGAGCUCCUGGCGCCCUCCCCUGGCCUCCAGAAGCUCAGGUGCACUUGAUGGUGGUUUCCUGUGUUCCUGUGGCGCUGCUCCUGGGGGGAAGAGUGUGCUCUAGCAGGCUGGAAUUCUCGGGUGCCAA: 0.497
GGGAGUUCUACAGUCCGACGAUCGUAAAAGCCAUUUAAAAAAGUUAGCAAGAUUUUUUAUCGACUUCCCAACUGGGCUUCCAGCCUUGUUGAAUGAAAUCAUCUAUCUCUGAUUGGGCGCAACGAACUGCAUUUGGAAUUCUCGGGUGCCAA: 0.429
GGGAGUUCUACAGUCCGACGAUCGAUGACCUGGCCUACAGCAAAGGACCUUGAGCUUUAAAGUAUCACCUCCAUGGAAGCGGGGGCAUGCAAGGGCGAGACAGUUUUUCCUCAUCCCUUGCCAAGCUUCUCUUUGGAAUUCUCGGGUGCCAA: 1.32

A few entries again (block 3):
TTAGGACTGGATACTGGGTTAGTGCTA: -0.485 z-score
TTAGTACTGCTTTTCCTTTAGTGCTAG: 2.52 z-score
TCACATTTATTTACTCTCACTGTGCTA: 1.6 z-score
TATATATCCATTATAGATGAGTGCTAG: 0.607 z-score
CTAGGTTTCGGGTTTCGGTTAGTGCTA: 11.2 z-score
